Results pooled from the literature.
Each numbered part is a random draw from the data of one study; scales do not carry over between parts. Substitutions count along the parent as printed.

Series 1 — target: CCND3, cyclin fold, Cln2 fusion (human); technique: yeast growth competition, sequencing; medium: yeast; setting: weak parent motif; relative to: not given; reading: higher = stronger binding
Starting sequence: DOT1L docking peptide (human); SEAKRRIVFTITT; partner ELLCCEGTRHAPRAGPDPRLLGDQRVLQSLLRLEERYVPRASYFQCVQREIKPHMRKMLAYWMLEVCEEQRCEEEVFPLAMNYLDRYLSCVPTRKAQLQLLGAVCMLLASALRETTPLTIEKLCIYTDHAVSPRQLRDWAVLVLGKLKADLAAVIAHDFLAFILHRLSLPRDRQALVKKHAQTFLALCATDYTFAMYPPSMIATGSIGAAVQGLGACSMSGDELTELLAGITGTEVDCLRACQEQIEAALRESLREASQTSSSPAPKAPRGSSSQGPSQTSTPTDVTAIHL
`T13A` — result for “normalised enrichment score”: 0.656.
Under “normalised enrichment score”, `E2A` is recorded as 0.271.
`R5A` — result for “normalised enrichment score”: 0.304.
Under “normalised enrichment score”, `I7A` is recorded as 0.154.
For `I11A`, “normalised enrichment score” read -0.0507.
`K4A` — result for “normalised enrichment score”: 0.362.

Series 2 — technique: RNA Bind-n-Seq; molecule type: RNA; medium: in vitro; concentration: 365 nM; relative to: no-protein control; reading: higher = stronger binding
Target: RNA binding protein fox-1 homolog 2, RRM domain, GST-SBP tag (RBFOX2, Homo sapiens, UniProt O43251-10, residues 100-194)
Setting: natural RNA segment, single round, ends assumed
Target sequence (chain): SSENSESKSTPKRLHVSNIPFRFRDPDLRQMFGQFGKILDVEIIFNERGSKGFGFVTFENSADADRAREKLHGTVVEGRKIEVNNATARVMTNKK
`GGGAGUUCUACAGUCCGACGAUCUUUUUUGAUUUUUGCUGACUUAAAAAGGAUUAAUUUGGGCAGACAUUAUAAAAAGGAAAGGGUUAAUAUAUUUUUGGACUCUGUAGGACAAAAGAGAACUGGUUAACCUUUGGAAUUCUCGGGUGCCAA` — result for “RBNS enrichment (R)”: 0.656.
`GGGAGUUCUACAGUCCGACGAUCGUUGAGCCAAAGCCCCCAGUGUUUGUAUUUUGAAGCCAAGCUUCACUUUAAAAGUGCCUACAGAGUUCUGUAAAUGAAAACACAGCUCUGCAUGAGUUCAAACCUGUCGUUGGAAUUCUCGGGUGCCAA`: “RBNS enrichment (R)” 0.997.
`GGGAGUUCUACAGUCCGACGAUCUUAAAACCUUGAACACUCCAGUUGACUGCAUCUGUGCUAGUGUGGUAUAUCAUACAUGAUCUUAAAGCCAAAGAUGCCAUGAAAAUACUGCAGUAUGGCUGUGAUUUCUGUGGAAUUCUCGGGUGCCAA`: “RBNS enrichment (R)” 0.421.
For `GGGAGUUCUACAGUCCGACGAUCCAAAGCAAAAGCCCAGUUGGUCAAAGCACAAAAGGCAGCAGCCGCAGCAGCUGCUGCAGCUGCUGCAGCCGCCUCAGUUGGAGGGACCAUUCCGGGACCUGGCCCUGGGGUGGAAUUCUCGGGUGCCAA`, “RBNS enrichment (R)” read 0.348.
For `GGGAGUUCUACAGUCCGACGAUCUCAGAGUUCUAAGGACCAGCAUUCUGGGGGCCAUUUUCUCUACAGGCAAAUGGAAUUGCUUUUCCAUAACAUCCAAAUUGUAAUGUGGUUGCUGCUGAAGGAGGAGGCAGUGGAAUUCUCGGGUGCCAA`, “RBNS enrichment (R)” read 0.456.
`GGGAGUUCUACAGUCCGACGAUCUUGGACAUCAGUUUGUGUGUUCUGUAGGAAUUGUGUGCAUUCCAUUCACACAGUAUUUCUUUAGGAUGCUGUGAUGAUUUGAAUUACAAAUCCUACAGUCAAUAGCUAAAUGGAAUUCUCGGGUGCCAA`: “RBNS enrichment (R)” 0.273.
`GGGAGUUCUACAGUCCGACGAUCACAGAACCCAGGGCUUAAUGCGUGGCAGCUAAGCACUCUAUCAACUGAGUUACAUCUCCAUCCUGUAACUGAUCUUUGAGCUUGGUCAUCAGGCCCUUAAUUAUGGCAGAUGGAAUUCUCGGGUGCCAA` — result for “RBNS enrichment (R)”: 0.269.
Under “RBNS enrichment (R)”, `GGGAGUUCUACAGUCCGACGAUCCUUUGUUCUGAAUAUCAACUAGAGCAAGCAAAUACUGGAGAUUUCUUAGUCAGUUUUUAGGGGACCUCGGGGGUGGGGUAUAUAGGUAAUAUACAGAGCAUUUUGACUUCUGGAAUUCUCGGGUGCCAA` is recorded as 1.13.
`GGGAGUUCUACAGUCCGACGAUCGUUAAGUCUGGCUAUAUUUGAAGGUUAUGACAUAAAGCCAGCAGCUUUAAUGGCUUUUAUGAAGUGAAGUGACUUGUUUAACUCCUAUUUAUAUUUCUCUGUGCAUAUAUUGGAAUUCUCGGGUGCCAA` — result for “RBNS enrichment (R)”: 2.68.
`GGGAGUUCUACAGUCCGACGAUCUCUGGGAAACCAUCCUUCCAAAACGGAAUCUAUGUAGACAAUGGGACGUUAGGCAGAGAGCUCAGAUGGCCCUUUUAAGGGGGCUCCAAGAACCAACAUCACUGCUCUUUUGGAAUUCUCGGGUGCCAA`: “RBNS enrichment (R)” 0.352.
`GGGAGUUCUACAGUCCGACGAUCAUUUCUUGGUCAUUUCUCAACCUGAGGUGCAUAGCAUAUUCCCACAUUCCAUUUUGGUAGCAAUAUGCAGUCCGAAUGCAUGCAUUCAUAAGUCCAUUUGGCCAAGUCAGUGGAAUUCUCGGGUGCCAA`: “RBNS enrichment (R)” 1.06.
For `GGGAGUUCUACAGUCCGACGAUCUCUGCAGCCCUCGGGACCCCACUCGGAGGGUGCCCUCUGCUCAGGCCUCCCUAGCACCUCCCCCUAACCAAAUUCUCCCUGGACCCCAUUCUGAGCUCCCCAUCACCAUGUGGAAUUCUCGGGUGCCAA`, “RBNS enrichment (R)” read 0.371.

Series 3 — technique: DHFR PCA, deep sequencing; medium: yeast; with: (+)-ABA 2500 µM; relative to: wild-type fitted maximum; reading: higher = stronger binding
Target: ABI1, truncated, D143A, DHFR fusion (Arabidopsis thaliana)
Setting: methotrexate growth selection, single substitutions
Starting sequence: PYL1, truncated, DHFR fusion (Arabidopsis thaliana); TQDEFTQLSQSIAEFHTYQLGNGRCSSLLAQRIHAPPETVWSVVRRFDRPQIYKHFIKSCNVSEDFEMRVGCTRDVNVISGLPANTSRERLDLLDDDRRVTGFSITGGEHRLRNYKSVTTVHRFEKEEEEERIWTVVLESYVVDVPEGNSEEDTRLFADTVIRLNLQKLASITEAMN; partner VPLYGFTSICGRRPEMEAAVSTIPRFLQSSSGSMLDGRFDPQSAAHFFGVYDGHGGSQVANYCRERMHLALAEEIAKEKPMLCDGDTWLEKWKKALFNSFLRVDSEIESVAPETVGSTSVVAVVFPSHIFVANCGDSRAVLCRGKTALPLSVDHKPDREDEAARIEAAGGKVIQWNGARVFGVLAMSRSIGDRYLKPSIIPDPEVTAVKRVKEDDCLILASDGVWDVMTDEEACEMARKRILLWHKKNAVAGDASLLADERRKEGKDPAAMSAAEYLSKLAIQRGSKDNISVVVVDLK
`L29S`: “relative binding score” 90.5%.
`V40D`: “relative binding score” 2.5%.
`Q2P`: “relative binding score” 97.4%.
For `S117A`, “relative binding score” read 105%.
`S9A`: “relative binding score” 109%.
For `V121N`, “relative binding score” read -6.22%.
`G23S` — result for “relative binding score”: 100%.
`C72M` — result for “relative binding score”: 95.9%.

Other studies, line by line
`PhoQ, residues 284 288 289 292 302 303 MLMVEA` has a fold induction of 1.02 (PhoP, residues 12 14 15 18 19 LHHSG (Escherichia coli, UniProt P23836); Sort-seq, item: YFP reporter; E. coli; PhoQ-PhoP variant library, with: 10 µM Mg2+; relative to: high Mg2+ state, higher = stronger signaling).

Some of these lines once more (series 3):
`L29S`: “relative binding score” 90.5%.
`V40D`: “relative binding score” 2.5%.
`Q2P`: “relative binding score” 97.4%.
